Measurements from different studies.
Each numbered part is a random draw from the data of one study; scales do not carry over between parts.

Set 1 — method: universal PBM; molecule type: double-stranded DNA, one strand shown; medium: in vitro; tested at: not given; reading: higher = stronger binding
Target: Sal-like protein 4, full length isoform B (SALL4, Homo sapiens, UniProt Q9UJQ4-2, residues 1-616)
Notes: 8-mer, flanks averaged, mean of replicates
Target sequence (chain): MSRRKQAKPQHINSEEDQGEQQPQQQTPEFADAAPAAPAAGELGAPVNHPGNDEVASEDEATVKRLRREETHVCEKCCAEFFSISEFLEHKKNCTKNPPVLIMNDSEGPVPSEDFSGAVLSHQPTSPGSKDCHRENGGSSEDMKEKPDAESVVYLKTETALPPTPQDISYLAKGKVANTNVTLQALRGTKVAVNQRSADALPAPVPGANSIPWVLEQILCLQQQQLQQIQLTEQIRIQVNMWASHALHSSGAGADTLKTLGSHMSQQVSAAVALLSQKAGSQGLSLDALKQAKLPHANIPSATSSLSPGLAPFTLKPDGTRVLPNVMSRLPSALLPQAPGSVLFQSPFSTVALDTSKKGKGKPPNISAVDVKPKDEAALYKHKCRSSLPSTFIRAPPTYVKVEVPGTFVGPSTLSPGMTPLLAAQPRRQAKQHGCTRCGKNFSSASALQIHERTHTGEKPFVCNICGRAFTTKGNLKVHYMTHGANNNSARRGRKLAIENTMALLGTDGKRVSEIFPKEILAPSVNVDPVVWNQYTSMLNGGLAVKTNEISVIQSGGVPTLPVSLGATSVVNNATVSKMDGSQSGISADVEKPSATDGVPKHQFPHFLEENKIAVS
| Strand | E-score |
| --- | --- |
| CGGTCACG | -0.289 |
| CCGTTCCG | -0.235 |
| GTTAATAA | 0.411 |
| GAGCCCAC | -0.201 |

Set 2 — method: protein binding microarray; molecule type: double-stranded DNA, one strand shown; medium: in vitro; tested at: not given; relative to: not given; reading: higher = stronger binding
Target: Histone acetyltransferase KAT6A, both winged helices, GST fusion (KAT6A, Homo sapiens, UniProt Q92794, residues 1-181)
Notes: 8-mer, flanks averaged, mean of 2 arrays, mostly near background
Target sequence (chain): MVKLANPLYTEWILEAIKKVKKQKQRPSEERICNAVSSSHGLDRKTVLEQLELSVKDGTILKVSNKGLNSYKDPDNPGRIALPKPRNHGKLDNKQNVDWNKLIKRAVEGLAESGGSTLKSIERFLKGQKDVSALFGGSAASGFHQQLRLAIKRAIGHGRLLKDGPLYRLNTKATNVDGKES
| Strand | E-score |
| --- | --- |
| AGGAGGGC | -0.195 |
| CATTGTGC | 0.0485 |
| AATGTGAT | -0.00371 |
| CATGCACA | -0.104 |
| CTTAAGAC | 0.12 |

Set 3 — method: RNAcompete; molecule type: RNA; medium: in vitro; tested at: 20 nM; notes: 7-mer, probes averaged, single round; relative to: mean of 7-mers; reading: higher = stronger binding
Target: PABPC1L2, full length, GST fusion (mouse, UniProt A0ABA7IW68)
Target sequence (chain): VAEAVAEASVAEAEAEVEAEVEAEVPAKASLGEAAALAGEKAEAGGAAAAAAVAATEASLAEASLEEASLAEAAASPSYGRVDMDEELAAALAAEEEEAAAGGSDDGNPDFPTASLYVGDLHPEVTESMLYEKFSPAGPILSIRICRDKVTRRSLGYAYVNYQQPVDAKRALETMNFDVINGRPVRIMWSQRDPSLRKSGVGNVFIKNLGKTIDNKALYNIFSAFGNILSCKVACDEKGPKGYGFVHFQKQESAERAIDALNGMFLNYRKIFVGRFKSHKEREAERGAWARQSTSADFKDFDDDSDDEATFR
| Strand | 7-mer Z-score |
| --- | --- |
| ACGGCUU | -0.237 |
| UUAGUGA | -0.219 |
| CCGACGA | -0.119 |

Other studies, line by line
| Molecule | target | assay | test system | setting | how to read | endpoint | result |
| --- | --- | --- | --- | --- | --- | --- | --- |
| PhoQ, residues 284 288 289 292 302 303 ALASRC | PhoP, residues 12 14 15 18 19 HLGGL (Escherichia coli, UniProt P23836) | Sort-seq, measured: YFP reporter | E. coli | PhoQ-PhoP variant library, together with: 10 µM Mg2+ | relative to: high Mg2+ state, higher = stronger signaling | fold induction | 4.39 |

Excerpt of the above (set 3):
| Strand | 7-mer Z-score |
| --- | --- |
| UUAGUGA | -0.219 |
